Results of several laboratories.
Lines come from different studies, so protocols differ. In brackets after ≈: the same amount, converted by molar mass.
Organism: Acinetobacter baumannii

Structure (SMILES) | assay | system | setting | how to read | endpoint | result
CCn1c(-c2ccc(OC)cc2)c(-c2ccc(OC)cc2)n(CC)c1=[Se+][Au-][P+](CC)(CC)CC.[Cl-] |  | carbapenem-resistant | 10, 20, 40 µM, 2 h | reference: untreated | malondialdehyde content | increased
CC[C@@H](C)[C@@H](NC(=O)[C@@H](C)NC(=O)[C@@H](CCCCN)NC(=O)[C@@H](CC(C)C)NC(=O)[C@@H](C)NC(=O)[C@H](NC(=O)[C@@H](Cc1c[nH]cn1)NC(=O)[C@@H](CC(C)C)NC(=O)[C@H](NC(=O)[C@H](NC(=O)[C@@H](CCCCN)NC(=O)[C@@H](CCCCN)NC(=O)[C@@H](C)NC(=O)[C@@H](CO)NC(=O)[C@@H](CCCCN)NC(=O)[C@@H](Cc1ccccc1)NC(=O)[C@H](NC(=O)[C@@H](CCCCN)NC(=O)[C@@H](CC(C)C)NC(=O)[C@@H](Cc1ccccc1)NC(=O)[C@@H](CO)NC(=O)[C@@H](CCCCN)NC(=O)[C@@H](Cc1c[nH]c2ccccc12)NC(=O)[C@@H](CCCCN)NC(C)=O)[C@H](C)O)[C@H](C)O)C(C)C)[C@H](C)O)C(=O)N[C@H](CO)C(=O)N[C@H](CO)C(N)=O |  | 11 isolates | 24 h, 37 °C |  | MIC geometric mean | 1.1 µM (≈ 3.29 µg/mL)
CCn1c(-c2ccc(-c3ccc(F)cc3)cc2)c(-c2ccc(-c3ccc(F)cc3)cc2)n(CC)c1=[Se+][Au-][P+](CC)(CC)CC.[Cl-] |  | carbapenem-resistant | 10, 20, 40 µM, 2 h | reference: untreated | superoxide dismutase activity | decreased
CCCCCCCCCCCCCC(=O)N[C@H](CCN)C(=O)N[C@@H]1C(=O)N[C@@H](CCN)C(=O)N[C@@H](CC(C)C)C(=O)N[C@@H](CCN)C(=O)N[C@H](Cc2ccccc2)C(=O)N[C@@H](CC(C)C)C(=O)N[C@@H](CCN)C(=O)N[C@H](CCN)C(=O)N[C@@H](C(C)C)C(=O)N[C@@H](CC(=O)O)C(=O)O[C@@H]1C |  | ATCC BAA-1605, carbapenem-resistant, neutropenic mice, thigh infection | subcutaneous, 20 mg/kg once daily, 24 h | reference: vehicle | reduction in bacterial burden | 2.4 log10 CFU
O=c1c(O)ccc(Br)cc1O |  | multidrug-resistant Ab4 |  |  | MIC80 | 19.8 µM (≈ 4.3 µg/mL)
Oc1cc(C(F)(F)F)ccc1-c1nc2c(C(F)(F)F)cc(C(F)(F)F)cc2[nH]1 | colistin potentiator | AB 2A8, colistin-resistant | 5 µM |  | colistin MIC | 0.125 µg/mL
CC(C)C[C@H](NC(=O)[C@H](Cc1ccc(O)cc1)NC(=O)[C@@H]1CCCN1C(=O)[C@H](CCCNC(=N)N)NC(=O)[C@@H]1CCCN1C(=O)[C@H](CCCCN)NC(=O)[C@H](CC(=O)O)NC(=O)[C@@H]1CCCN1C(=O)[C@H](CCCNC(=N)N)NC(=O)C1(N)CCCCC1)C(=O)N1CCC[C@H]1C(=O)N[C@@H](CCCNC(=N)N)C(=O)N1CCC[C@H]1C(=O)N[C@@H](CCCNC(=N)N)C(=O)N1CCC[C@H]1C(=O)N1CCC[C@H]1C(=O)N[C@@H](CCCNC(=N)N)C(=O)N1CCC[C@H]1C(=O)N[C@H](C(=O)N[C@@H](CCCNC(=N)N)C(=O)N[C@@H](CSc1c(F)c(F)c(-c2c(F)c(F)c(SC[C@H](NC(=O)[C@H](CCCNC(=N)N)NC(=O)[C@@H](NC(=O)[C@@H]3CCCN3C(=O)[C@H](CCCNC(=N)N)NC(=O)[C@@H]3CCCN3C(=O)[C@@H]3CCCN3C(=O)[C@H](CCCNC(=N)N)NC(=O)[C@@H]3CCCN3C(=O)[C@H](CCCNC(=N)N)NC(=O)[C@@H]3CCCN3C(=O)[C@H](CC(C)C)NC(=O)[C@H](Cc3ccc(O)cc3)NC(=O)[C@@H]3CCCN3C(=O)[C@H](CCCNC(=N)N)NC(=O)[C@@H]3CCCN3C(=O)[C@H](CCCCN)NC(=O)[C@H](CC(=O)O)NC(=O)[C@@H]3CCCN3C(=O)[C@H](CCCNC(=N)N)NC(=O)C3(N)CCCCC3)C(C)C)C(=O)NN)c(F)c2F)c(F)c1F)C(=O)NN)C(C)C | inner membrane permeabilization, PI/SYTO flow cytometry |  | concentration not given, 60 min, 37 °C |  | PI-positive bacteria | > 80%
CC[C@H](C)[C@H](NC(=O)[C@H](CCCCN)NC(=O)[C@@H](NC(=O)[C@H](CS)NC(=O)[C@H](CCCNC(=N)N)NC(=O)[C@H](CCCNC(=N)N)NC(=O)[C@H](CC(N)=O)NC(=O)[C@H](CCCNC(=N)N)NC(=O)[C@H](CS)NC(=O)[C@@H](NC(=O)[C@H](CO)NC(=O)[C@@H](NC(=O)[C@H](CS)NC(=O)[C@H](CCCCN)NC(=O)[C@@H](N)CCCNC(=N)N)[C@@H](C)CC)C(C)C)[C@@H](C)CC)C(=O)N[C@@H](CS)C(=O)N[C@@H](CCCNC(=N)N)C(=O)O |  | AB5075, RPMI with human serum | median, 40% human serum |  | MBC | 16 µg/mL (≈ 7.59 µM)
Oc1ccc(C(F)(F)F)cc1-c1nc2c(Cl)cc(Cl)cc2[nH]1 | colistin potentiator | AB 3941, colistin-resistant | 5 µM |  | MIC of colistin | 0.5 µg/mL

Excerpt of the above:
Structure (SMILES) | assay | system | setting | how to read | endpoint | result
CCn1c(-c2ccc(OC)cc2)c(-c2ccc(OC)cc2)n(CC)c1=[Se+][Au-][P+](CC)(CC)CC.[Cl-] |  | carbapenem-resistant | 10, 20, 40 µM, 2 h | reference: untreated | malondialdehyde content | increased
